Measured values pooled from the literature.
Compare with care: the assays were run in different laboratories. Numbers after ± are the reported error.

SMILES | test | test system | conditions | endpoint | value
Oc1cccc(-c2cccc(O)n2)n1.[Cl-].[Cl-].[Ru+2].c1ccc(-c2ccnc3c2ccc2c(-c4ccccc4)ccnc23)cc1.c1ccc(-c2ccnc3c2ccc2c(-c4ccccc4)ccnc23)cc1 |  |  | pH 7.4 | log D octanol/water | > 3
CCCCC[C@@H]1OC(=O)[C@@H](C)NC(=O)[C@H](CCCCC)OC(=O)[C@@H](C)NC(=O)[C@H](CCCCC)OC(=O)[C@@H](C)NC(=O)[C@H](CCCCC)OC(=O)[C@@H](C)NC1=O | PAMPA |  | 500 µM, pH 7.4 | log Papp | 2.82 ×10⁻⁶ cm/s
CNC(=O)C1CCCN(C(=O)C2CC3CCC2N3C(=O)[C@@H]2C[C@@H](O)CN2C(=O)NCc2cccc(Cl)c2F)C1 (mixture of isomers) | shake-flask octanol/buffer |  | pH 7.4 | log D | 3.9
CCCCC[C@@H]1OC(=O)[C@@H](C)N(C)C(=O)[C@H](CCCCC)OC(=O)[C@@H](C)NC(=O)[C@H](CCCCC)OC(=O)[C@@H](C)NC(=O)[C@H](CCCCC)OC(=O)[C@@H](C)NC1=O | PAMPA |  | 500 µM, pH 7.4, UV/ELSD/MS detection | log Papp | -5.93
O=C(O)CN1CCN(Cc2cccc(C(=O)O)n2)CCN(CP(=O)(O)O)CC1 | potentiometric titration |  | aliphatic carboxylate deprotonation | log Ka | 3.22
O=C([O-])CN1CCN(CC(=O)[O-])CCN(CC(O)CN(CC(O)CN2CCN(CC(=O)[O-])CCN(CC(=O)[O-])CCN(CC(=O)[O-])CC2)C[C@H](O)[C@@H](O)[C@H](O)[C@H](O)CO)CCN(CC(=O)[O-])CC1.[Gd+3] (stereo partly shown) | pH-potentiometry, measured: Gd(LH-1)M, M = Ca2+ |  | 25 °C, 0.15 M NaCl | log K | 10.3
O=C([O-])CN1CCCN2CCN(CCCN(CC(=O)NC(Cc3ccccc3)C(=O)NC(Cc3ccccc3)C(=O)NCCCC[C@H](NC(=O)CCCCCCC(=O)NCCCC[C@H](NC(=O)N[C@@H](CCC(=O)O)C(=O)O)C(=O)O)C(=O)O)CC2)CC1.[64Cu+2] (single isomer, unassigned) |  | octanol/water |  | log P | -2.68
O=C(O)c1cccc(CN2Cc3cccc(n3)CN(Cc3cccc(C(=O)O)n3)Cc3cccc(n3)C2)n1 | potentiometric titration | 0.16 M NaCl | 25 °C | log KHL | 9.84
NCCN(CC(=O)O)C(=O)Cn1cnc2c(N)ncnc21 | IAM chromatography |  | pH 7.0, 30 °C, extrapolated to 0% acetonitrile | log kW IAM | -0.68
O=C(O)C(Cc1c[nH]cn1)N1C(=O)c2ccc3c4ccc5c6c(ccc(c7ccc(c2c37)C1=O)c64)C(=O)N(C(Cc1c[nH]cn1)C(=O)O)C5=O (stereo not shown) | shake-flask | 1-octanol/phosphate buffer | pH 7.0 | log D | -2.22 ± 0.06
CN(CCNCc1ccncc1[O-])CCNCc1ccncc1[O-].[Cl-].[Fe+3] | pendant hydroxypyridine nitrogen protonation, UV-vis titration |  |  | log K | 5.2
Cc1cn(CC(=O)N(CCNC(=O)OC(C)(C)C)CC(=O)O)c(=O)[nH]c1=O | IAM chromatography |  | pH 7.0, 30 °C, extrapolated to 0% acetonitrile | log kW IAM | -0.49
O=C(O)CN1CCN(CC(=O)O)CCN(Cc2cccc(P(=O)(O)O)n2)CC1 | potentiometric titration |  | second phosphonate deprotonation | log Ka | 7.09
N#C[C@@H]1CC(F)(F)CN1C(=O)CNC(=O)c1ccnc2c(NC(=O)CCOCCOCCOCCOCCOCCOCCNC(=O)[C@H](CCCCNC(=O)CN3CCN(CC(=O)[O-])CCN(CC(=O)[O-])CCN(CC(=O)[O-])CC3)NC(=O)CCCc3ccc(I)cc3)cccc12.[177Lu+3] |  | octanol/PBS | pH 7.4, 177Lu-labelled | log P | -1.22 ± 0.32
CCCCC[C@@H]1OC(=O)[C@@H](C)N(C)C(=O)[C@H](CCCCC)OC(=O)[C@@H](C)N(C)C(=O)[C@H](CCCCC)N(C)C(=O)[C@@H](C)N(C)C(=O)[C@H](CCCCC)OC(=O)[C@@H](C)N(C)C1=O | PAMPA |  | 500 µM, pH 7.4, UV/ELSD/MS detection | log Papp | -5.24
O=C(O)c1cccc(CN2CCCNCCNCCCNCC2)n1 | potentiometry | aqueous 1.0 M KCl | 25 °C, L + H+ to HL | log overall protonation constant | 11.1
FC(F)(F)c1cc2nc(c1)CNCc1cc(C(F)(F)F)cc(n1)CNC2 | protonation constant, potentiometry |  | 298 K, ionic strength 0.15 M NaCl | log K2 | 6.2
CCCCC[C@@H]1OC(=O)[C@@H](C)N(C)C(=O)[C@H](CCCCC)N(C)C(=O)[C@@H](C)N(C)C(=O)[C@H](CCCCC)OC(=O)[C@@H](C)N(C)C(=O)[C@H](CCCCC)N(C)C(=O)[C@@H](C)N(C)C1=O | PAMPA |  | 500 µM, pH 7.4, UV/ELSD/MS detection | log Papp | -5.49
Clc1cc2nc(c1)CNCc1cc(Cl)cc(n1)CNC2 | protonation constant, potentiometry |  | 298 K, ionic strength 0.15 M NaCl | log K2 | 6.2
NCCN(CC(=O)O)C(=O)Cn1ccc(N)nc1=O | IAM chromatography |  | pH 7.0, 30 °C, extrapolated to 0% acetonitrile | log kW IAM | -0.75
Fc1cccc(-c2cc3cn[nH]c3nn2)c1F | IAM.PC.DD2 HPLC |  | pH 7.4 | log k(IAM) | 1.99
CC[P+](c1ccccc1)(c1ccccc1)c1ccccc1 | HPLC | octanol/water | 100 µM | log P | -1.36
CCCCC[C@@H]1OC(=O)[C@@H](C)N(C)C(=O)[C@H](CCCCC)OC(=O)[C@@H](C)N(C)C(=O)[C@H](CCCCC)OC(=O)[C@@H](C)N(C)C(=O)[C@H](CCCCC)OC(=O)[C@@H](C)NC1=O | PAMPA |  | 500 µM, pH 7.4, UV/ELSD/MS detection | log Papp | -5.86
c1n[nH]c2nnc(N3CCCCC3)cc12 | IAM.PC.DD2 HPLC |  | pH 7.4 | log k(IAM) | 2.56
CCCCC[C@@H]1OC(=O)[C@@H](C)N(C)C(=O)[C@H](CCCCC)OC(=O)[C@@H](C)NC(=O)[C@H](CCCCC)OC(=O)[C@@H](C)N(C)C(=O)[C@H](CCCCC)OC(=O)[C@@H](C)NC1=O | PAMPA, HPLC-UV |  | 500 µM, pH 7.4 | log Papp | -5.94 ± 0.02
CC(C)Cc1ccc(C(C)C(=O)N[C@@H](CCCCNC(=O)CCOCCOCCOCCOCCOCCOCCNC(=O)CN2CCN(CC(=O)[O-])CCN(CC(=O)[O-])CCN(CC(=O)[O-])CC2)C(=O)Nc2cccc3c(C(=O)NCC(=O)N4CC(F)(F)C[C@H]4C#N)ccnc23)cc1.[177Lu+3] (stereo partly shown) |  | octanol/PBS | pH 7.4, 177Lu-labelled | log P | -0.76 ± 0.11
CCCCC[C@@H]1OC(=O)[C@@H](C)N(C)C(=O)[C@H](CCCCC)OC(=O)[C@@H](C)N(C)C(=O)[C@H](CCCCC)OC(=O)[C@@H](C)NC(=O)[C@H](CCCCC)OC(=O)[C@@H](C)NC1=O | PAMPA, HPLC-UV |  | 500 µM, pH 7.4 | log Papp | -5.31 ± 0.03
O=C(O)CN1CCN(CC(=O)O)CCN(CC(O)CN(CC(O)CN2CCN(CC(=O)O)CCN(CC(=O)O)CCN(CC(=O)O)CC2)C[C@H](O)[C@@H](O)[C@H](O)[C@H](O)CO)CCN(CC(=O)O)CC1 (stereo partly shown) | pH-potentiometry, measured: Gd2(LH-2), alcoholic OH deprotonation |  | 25 °C, 0.15 M NaCl | log K | 11.5

Excerpt of the above:
SMILES | test | test system | conditions | endpoint | value
Fc1cccc(-c2cc3cn[nH]c3nn2)c1F | IAM.PC.DD2 HPLC |  | pH 7.4 | log k(IAM) | 1.99
CC[P+](c1ccccc1)(c1ccccc1)c1ccccc1 | HPLC | octanol/water | 100 µM | log P | -1.36
CCCCC[C@@H]1OC(=O)[C@@H](C)N(C)C(=O)[C@H](CCCCC)OC(=O)[C@@H](C)N(C)C(=O)[C@H](CCCCC)OC(=O)[C@@H](C)N(C)C(=O)[C@H](CCCCC)OC(=O)[C@@H](C)NC1=O | PAMPA |  | 500 µM, pH 7.4, UV/ELSD/MS detection | log Papp | -5.86
c1n[nH]c2nnc(N3CCCCC3)cc12 | IAM.PC.DD2 HPLC |  | pH 7.4 | log k(IAM) | 2.56
